Measurements collected from several papers.
Each line is one published result; not all experiments were run side by side. Values joined by “and” are separate records of one study, mostly repeats; a detail may differ. ± marks the error that the study gave.

Compound	assay	system	setting	scale	endpoint	value
O=C1NC2(CC2)COc2ncc(F)cc2[C@H]2COCCN2c2ccn3ncc1c3n2	–	Sprague-Dawley rat, female, serum	oral, 10 mg/kg/day, 4 weeks daily, end of treatment	–	potassium	4.21 ± 0.47 mmol/L
CC(C)C[C@@H](NC(=O)[C@@H](CCCNC(=N)N)NC(=O)[C@@H](Cc1c[nH]cn1)NC(=O)[C@@H](Cc1c[nH]c2ccccc12)NC(=O)[C@@H](Cc1c[nH]cn1)NC(=O)[C@@H](Cc1ccccc1)NC(=O)[C@H](NC(=O)[C@@H](Cc1ccc(O)cc1)NC(=O)CNC(=O)CNC(=O)CCOCCOCCOCCNC(=O)CN1CCN(CC(=O)O)CCN(CC(=O)O)CC1)[C@H](C)O)C(=O)N[C@H](CC(N)=O)C(=O)N1CCC[C@@H]1C(=O)O [gallium-68 labelled]	OLINDA/EXM	adult female human, heart wall	extrapolated from C57BL/6 mice	–	organ absorbed dose	0.0102 ± 0.00246 mSv/MBq
C[C@H](O)[C@@H](NC(=O)[C@H]1CCCN1C(=O)[C@@H](CCCCN)NC(=O)[C@@H](CO)NC(=O)[C@@H](Cc1ccc(O)cc1)NC(=O)[C@@H](CC(N)=O)NC(=O)CCOCCOCCOCCNC(=O)CN1CCN(CC(=O)O)CCN(CC(=O)O)CCN(CC(=O)O)CC1)C(=O)N[C@H](CC(=O)O)C(=O)N[C@H](CCCNC(=N)N)C(=O)N[C@H](CCC(N)=O)C(=O)N[C@H](Cc1ccc(O)cc1)C(=O)N[C@H](Cc1c[nH]cn1)C(=O)N[C@H](Cc1ccccc1)C(N)=O [gallium-68 labelled]	ex vivo gamma counting	BALB/c nude mouse, U-87 MG xenograft, intestine	intravenous, 1.85 MBq, 120 min	–	tissue uptake	0.06 ± 0.03 %ID/g
C#Cc1c(F)ccc2cc(O)cc(-c3ncc4c(N5CC6CCC(C5)N6C(=O)OC(C)OC(=O)C5CCCC5)nc(OC[C@@]56CCCN5C[C@H](F)C6)nc4c3F)c12 (some centres unmarked)	item: prodrug	mouse whole blood	1 µM	–	t1/2	3.25 min
CN1CCCCC1C(=O)NC(Cc1ccc(-c2ccccc2)cc1)B(O)O (centres unmarked)	–	Caco-2	–	–	Papp B→A	24 ×10⁻⁶ cm/s
CSCC[C@H](NC(=O)CNC(=O)[C@H](CCCCN)NC(=O)[C@H](CC(C)C)NC(=O)[C@@H]1CCCN1C(=O)[C@H](CO)NC(=O)[C@H](Cc1c[nH]cn1)NC(=O)[C@H](Cc1c[nH]c2ccccc12)NC(=O)[C@H](CCCNC(=N)N)NC(=O)[C@H](CC(C)C)NC(=O)[C@H](CCCNC(=N)N)NC(=O)[C@H](Cc1c[nH]c2ccccc12)NC(=O)[C@H](CS)NC(=O)CCCCCNC(=O)CN1CCN(CC(=O)O)CCN(CC(=O)O)CCN(CC(=O)O)CC1)C(=O)O [copper-64 labelled]	ex vivo biodistribution	C57BL/6J mice bearing B16-F10 tumours, pancreas	intravenous, 1.85 MBq, 0.5 h	–	tissue uptake	1.6 %ID/g
COc1ccc([C@@H]2CC(=O)c3c(O)cc(O[C@@H]4O[C@H](CO)[C@@H](O)[C@H](O)[C@H]4O[C@@H]4O[C@@H](C)[C@H](O)[C@@H](O)[C@H]4O)cc3O2)cc1O	–	male Sprague-Dawley rats, obese, urine	oral, 100 mg/kg, 48 h	baseline: oral dose	urinary recovery	0.0034 ± 0.001%
CC(C)(CCCC/C=C/CCCCCC(C)(C)C(=O)O)C(=O)O	–	beagle dog, both sexes	oral, dose not given, 0.5 h	–	plasma concentration	35200 ng/mL
CC[C@H](C)[C@H](NC(C)=O)C(=O)N[C@@H](Cc1ccc(O)cc1)C(=O)N[C@@H](CC(C)C)C(=O)N[C@@H](CS)C(=O)NCC(=O)N[C@@H](C)C(=O)N[C@H](C(=O)N[C@@H](CO)C(=O)N[C@@H](CC(C)C)C(=O)N[C@@H](Cc1c[nH]cn1)C(=O)N1CCC[C@H]1C(=O)N[C@@H](CCCCN)C(=O)N[C@@H](C)C(=O)N[C@@H](CCCCN)C(=O)N[C@H](C(=O)N[C@@H](CCC(=O)O)C(=O)N[C@@H](CCC(=O)O)C(=O)N[C@@H](CO)C(=O)N1CCC[C@H]1C(=O)NCC(=O)N[C@@H](C)C(N)=O)[C@@H](C)CC)[C@@H](C)CC	Cy5.5 fluorescence	mouse (C57BL/6), serum	intravenous, 10 mg/kg	–	elimination half-life	0.8 h
COCC12CCC(OC)C34C5CC6(O)C(OC)C(O)C(O)(C5C6OC(=O)c5ccccc5)C(C(OC)C13)C4N(C)C2 (centres unmarked)	–	Sprague-Dawley rat, plasma	oral, dose not given, in PCW extract	–	MRT(0-t)	4.81 ± 0.163 h
CC(CO)C1CN2C(=O)[C@H](CC(=O)O)NC(=O)CC(CC3CC3)NC(=O)[C@H](CCC(=O)O)NC(=O)CNC(=O)[C@H]([C@@H](C)O)NC(=O)[C@H](CCC(=O)O)NC(=O)[C@@H]2C1(F)F (some centres unmarked)	chemical stability, HPLC	human, serum	5 nM, 4 h	–	compound remaining	~85%
CCCCCCCCCCCCCC(=O)N[C@H](CCN)C(=O)N[C@@H]1C(=O)N[C@@H](CCN)C(=O)N[C@@H](CC(C)C)C(=O)N[C@@H](CCN)C(=O)N[C@H](Cc2ccccc2)C(=O)N[C@@H](CC(C)C)C(=O)N[C@@H](CCN)C(=O)N[C@H](CCN)C(=O)N[C@@H](C(C)C)C(=O)N[C@@H](CC(=O)O)C(=O)O[C@@H]1C	–	rat, plasma	intravenous, 5 mg/kg	–	MRT(0-inf)	4.82 h
CCc1nn(C)c2nc(-c3ccc(C(=O)O)cc3)nc(NCc3ccccc3)c12	–	male CD-1 mouse, plasma	intravenous, 1 mg/kg, 4 h	–	concentration	92 ng/mL
CSCC[C@H](N)C(=O)N[C@@H](C)C(=O)N[C@@H](Cc1c[nH]c2ccccc12)C(=O)N[C@@H](Cc1c[nH]cn1)C(=O)N[C@@H](CC(=O)O)C(=O)N[C@@H](CC(=O)O)C(=O)N[C@@H](CCC(=O)O)C(=O)N[C@@H](CCC(=O)O)C(=O)N[C@@H](Cc1ccccc1)C(=O)N[C@@H](C)C(=O)N[C@@H](CCCNC(=N)N)C(=O)N[C@@H](CCCNC(=N)N)C(=O)N[C@@H](CCCNC(=N)N)C(=O)N[C@@H](CCCNC(=N)N)C(=O)NCCCCCC(=O)NCCCCC(NC(=O)CCCCCNC(=O)[C@H](CCCNC(=N)N)NC(=O)[C@H](CCCNC(=N)N)NC(=O)[C@H](CCCNC(=N)N)NC(=O)[C@H](CCCNC(=N)N)NC(=O)[C@H](C)NC(=O)[C@H](Cc1ccccc1)NC(=O)[C@H](CCC(=O)O)NC(=O)[C@H](CCC(=O)O)NC(=O)[C@H](CC(=O)O)NC(=O)[C@H](CC(=O)O)NC(=O)[C@H](Cc1c[nH]cn1)NC(=O)[C@H](Cc1c[nH]c2ccccc12)NC(=O)[C@H](C)NC(=O)[C@@H](N)CCSC)C(=O)NCCCCC(NC(=O)C(CCCCNC(=O)CCCCCNC(=O)[C@H](CCCNC(=N)N)NC(=O)[C@H](CCCNC(=N)N)NC(=O)[C@H](CCCNC(=N)N)NC(=O)[C@H](CCCNC(=N)N)NC(=O)[C@H](C)NC(=O)[C@H](Cc1ccccc1)NC(=O)[C@H](CCC(=O)O)NC(=O)[C@H](CCC(=O)O)NC(=O)[C@H](CC(=O)O)NC(=O)[C@H](CC(=O)O)NC(=O)[C@H](Cc1c[nH]cn1)NC(=O)[C@H](Cc1c[nH]c2ccccc12)NC(=O)[C@H](C)NC(=O)[C@@H](N)CCSC)NC(=O)CCCCCNC(=O)[C@H](CCCNC(=N)N)NC(=O)[C@H](CCCNC(=N)N)NC(=O)[C@H](CCCNC(=N)N)NC(=O)[C@H](CCCNC(=N)N)NC(=O)[C@H](C)NC(=O)[C@H](Cc1ccccc1)NC(=O)[C@H](CCC(=O)O)NC(=O)[C@H](CCC(=O)O)NC(=O)[C@H](CC(=O)O)NC(=O)[C@H](CC(=O)O)NC(=O)[C@H](Cc1c[nH]cn1)NC(=O)[C@H](Cc1c[nH]c2ccccc12)NC(=O)[C@H](C)NC(=O)[C@@H](N)CCSC)C(N)=O (some centres unmarked)	–	C57BL/6 mouse female, pancreas	dose not given, 3 h	baseline: total	tissue distribution	0.93% and 0.99% and 1.51%

For quick reference, copied from above:
Compound	assay	system	setting	scale	endpoint	value
CCCCCCCCCCCCCC(=O)N[C@H](CCN)C(=O)N[C@@H]1C(=O)N[C@@H](CCN)C(=O)N[C@@H](CC(C)C)C(=O)N[C@@H](CCN)C(=O)N[C@H](Cc2ccccc2)C(=O)N[C@@H](CC(C)C)C(=O)N[C@@H](CCN)C(=O)N[C@H](CCN)C(=O)N[C@@H](C(C)C)C(=O)N[C@@H](CC(=O)O)C(=O)O[C@@H]1C	–	rat, plasma	intravenous, 5 mg/kg	–	MRT(0-inf)	4.82 h
